Measurements from different studies.
Each line is one published result; not all experiments were run side by side. ± gives the spread as reported.

| SMILES | test | test system | conditions | tissue uptake [%ID/g] |
| --- | --- | --- | --- | --- |
| N=C(N)NCc1ccc(C(=O)NCCCC[C@H](NC(=O)N[C@@H](CCC(=O)O)C(=O)O)C(=O)O)cc1[131I] |  | SCID mouse, PC-3 xenografts, kidneys | 14 h | 19.1 ± 11.7 |
| C=Cc1cc(O)cc2nc(-c3ccc(O)c([76Br])c3)oc12 |  | female C57BL/6 mouse, ovaries | 1 h, high dose, with: estradiol 20 µg blocking | 0.3 ± 0.15 |
| C[C@]12CC[C@H](OCC[18F])C[C@H]1CC[C@@H]1[C@@H]2CC[C@]2(C)[C@@H](c3ccc(=O)oc3)CC[C@]12O | micro-PET | BALB/c nude mice, HepG2 xenograft, liver | intravenous, 7.4 MBq, 60 min | 5.42 ± 1.27 |
| CCCC[C@H](NC(=O)CCOCCOCCNC(=O)CN1CCN(CC(=O)O)CCN(CC(=O)O)CCN(CC(=O)O)CC1)C(=O)N[C@H]1CC(=O)NCCCC[C@@H](C(N)=O)NC(=O)[C@H](Cc2c[nH]c3ccccc23)NC(=O)[C@H](CCCNC(=N)N)NC(=O)[C@@H](Cc2ccccc2)NC(=O)[C@H](Cc2c[nH]cn2)NC1=O [gallium-68 labelled] |  | C57BL/6J mice male B16-F10 tumour, heart | 1 h post injection, unblocked | 0.2 ± 0.1 |
| O=C(c1ccc(F)cc1)C1CCN(C2Cc3c(cccc3OCC[18F])CC2O)CC1 (single isomer, unassigned; (-)) |  | Sprague-Dawley rat, male, muscle | intravenous, dose not given, 120 min | 0.235 ± 0.01 |
| O=C(O)CC[C@H](NC(=O)O[C@@H](CCCCNC(=O)c1ccc([18F])cc1)C(=O)O)C(=O)O |  | mouse, PC-3 PIP/flu xenografts, kidney | 90 min | 1.51 ± 0.22 |
| COc1cc2ncnc(Oc3cccc(N[11C](=O)Nc4cc(C(C)(C)C(F)(F)F)on4)c3)c2cc1OC |  | Balb/c nude mouse, female, A375 melanoma xenograft, spleen | 6.6 MBq, 30 min | 2.2 ± 0.07 |
| COc1cc2ccnc(Cc3ccc(O[11CH3])c(OC)c3)c2cc1OC |  | Sprague-Dawley rats, muscle | intravenous, 0.08333 h | 0.132 ± 0.009 |
| N=C(N)NCc1ccc(C(=O)NCCCC[C@H](NC(=O)CCCCCCC(=O)NCCCC[C@H](NC(=O)N[C@@H](CCC(=O)O)C(=O)O)C(=O)O)C(=O)O)cc1[211At] |  | SCID mouse, PC-3 xenografts, brain | 1 h | 0.08 ± 0.02 |
| CCNc1cc2[o+]c3cc(NCC)c(C)cc3c(-c3ccccc3C(=O)OCCOCC[18F])c2cc1C |  | rat, lung | 60 min | 0.58 ± 0.19 |
| N=C(N)NCc1ccc(C(=O)NCCCC[C@H](NC(=O)N[C@@H](CCC(=O)O)C(=O)O)C(=O)O)cc1[211At] |  | SCID mouse, PC-3 xenografts, heart | 1 h | 1.29 ± 0.37 |
| CN[C@](C)(C[18F])C(=O)O |  | SCID mouse MDA-MB-468 xenograft, spleen | 15 min, post injection | 9 ± 2.1 |
| N=C(N)NCc1ccc(C(=O)NCCCC[C@H](NC(=O)CCCCCCC(=O)NCCCC[C@H](NC(=O)N[C@@H](CCC(=O)O)C(=O)O)C(=O)O)C(=O)O)cc1[131I] |  | SCID mouse, PC-3 xenografts, muscle | 1 h | 0.31 ± 0.14 |
| COc1cc(C(=O)NCCOCCOCCOCCNC(=O)c2ccc([18F])nc2)ccc1NC(=O)C1NC(CC(C)(C)C)C(C#N)(c2ccc(Cl)cc2F)C1c1cccc(Cl)c1F (centres unmarked) |  | athymic male mice, SJSA-1 xenograft, large intestine | 1 h | 0.55 ± 0.36 |

A few entries again:
| SMILES | test | test system | conditions | tissue uptake [%ID/g] |
| --- | --- | --- | --- | --- |
| N=C(N)NCc1ccc(C(=O)NCCCC[C@H](NC(=O)CCCCCCC(=O)NCCCC[C@H](NC(=O)N[C@@H](CCC(=O)O)C(=O)O)C(=O)O)C(=O)O)cc1[131I] |  | SCID mouse, PC-3 xenografts, muscle | 1 h | 0.31 ± 0.14 |
